Measured values gathered from unrelated publications.
A part holds a random share of what one study measured. Positions count from the first letter of the parent shown.

Block 1 — technique: protein binding microarray; molecule type: double-stranded DNA, one strand shown; medium: in vitro; tested at: not given; relative to: not given; direction: higher = stronger binding
Target: Histone acetyltransferase KAT6A, both winged helices, GST fusion (KAT6A, Homo sapiens, UniProt Q92794, residues 1-181)
Setting: 8-mer, flanks averaged, mean of 2 arrays, mostly near background
Target sequence (chain): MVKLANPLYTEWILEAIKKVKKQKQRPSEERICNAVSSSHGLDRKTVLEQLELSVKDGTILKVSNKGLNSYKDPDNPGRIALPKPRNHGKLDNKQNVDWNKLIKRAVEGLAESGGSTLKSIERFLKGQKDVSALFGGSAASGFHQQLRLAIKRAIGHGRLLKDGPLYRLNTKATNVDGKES
| Sequence | E-score |
| --- | --- |
| CCACCTAC | -0.234 |
| GTATTAAA | -0.0339 |
| CGACTCGC | 0.14 |
| GGATCCAC | 0.0642 |
| GCAGCAAC | 0.0265 |
| ATAGCAGA | -0.179 |
| CCAGCTCG | -0.0923 |
| AACTCAGC | 0.0507 |
| CTGGTGCC | -0.0647 |
| CATCAACG | -0.16 |
| AACTTTCA | -0.107 |
| GTAAGCCA | -0.0808 |
| GCTATTCA | -0.0196 |
| ACACTAGT | -0.113 |

Block 2 — technique: RNA Bind-n-Seq; molecule type: RNA; medium: in vitro; tested at: 200 nM; setting: whole 134-nt RNA, ends assumed; together with: 150 mM KCl; relative to: input library; direction: higher = stronger binding
Target: Ras GTPase-activating protein-binding protein 1, full length (G3BP1, Homo sapiens, UniProt Q13283)
UniProt Q13283, sequence (whole entry, looked up): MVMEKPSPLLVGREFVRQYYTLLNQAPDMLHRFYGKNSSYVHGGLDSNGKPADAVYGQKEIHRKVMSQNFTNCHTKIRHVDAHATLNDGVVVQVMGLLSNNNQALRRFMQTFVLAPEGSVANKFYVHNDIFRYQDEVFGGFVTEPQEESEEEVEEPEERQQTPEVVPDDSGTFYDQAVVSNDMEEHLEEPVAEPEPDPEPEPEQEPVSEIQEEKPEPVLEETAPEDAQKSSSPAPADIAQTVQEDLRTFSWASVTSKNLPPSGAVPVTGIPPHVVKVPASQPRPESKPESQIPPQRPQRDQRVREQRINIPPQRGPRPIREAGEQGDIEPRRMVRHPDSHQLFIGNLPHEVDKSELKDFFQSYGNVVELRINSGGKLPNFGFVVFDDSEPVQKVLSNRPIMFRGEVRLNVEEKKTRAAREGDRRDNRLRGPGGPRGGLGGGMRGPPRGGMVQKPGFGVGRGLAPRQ
Shared flanks, not repeated: GGGAGUUCUACAGUCCGACGAUC … UGGAAUUCUCGGGUGUCAAGG
| Sequence | log2 enrichment |
| --- | --- |
| AGUCCUGUGCUACACAUCGUAUGUACCGAAUCGGUUUUUUUGGUUUUUUUGGUUUGGAAAGUAUUAUGUUACGCCGUUCGGAUCUGCACU | -1.33 |
| CAAGUCCUGUGCUACACAUCGUAUGUACCGAAUCGUGUGUGUGUGUGUGUGUGUGAAAGUAUUAUGUUACGCCGUUCGGAUCUGCACUUC | 0.488 |
| CGCAGACAACACGCACCCACACAGACACAGAGGGAAGGGGUUGGGAUGGGGACAGGGUGCACAGCAGGGCGGGGUAGGACCCCAGCCCCU | 1.93 |
| GCAGGAAGUAAAAACAAAUGGAAAUGCUUCGGAUAGUGGCAGGGGUGGGGGUUGCUAAGGAAAGGGUGGGAUGGGAGUGGAAAAAGAGUU | 0.802 |
| UCAAGUCCUGUGCUACACAUCGUAUGUACCGAAUCGGUUGGGGUUGGGUUGGGGAAAGUAUUAUGUUACGCCGUUCGGAUCUGCACUUCC | 0.876 |
| GCAGGAAGUAAAAACAAAUGGAAAUGCUUCGGAUAGUGGCAGGGGUGGGGGUUGAUAAGGAAAGGGUGGGAUGGGAGUGGGUAAAGAGUU | 1.13 |
| UCCUGUGCUACACAUCGUAUGUACCGAAUCGGGGAAAAAGGGGUUUUUGGGGAAAGGGGAAAGUAUUAUGUUACGCCGUUCGGAUCUGCA | 0.934 |
| ACCAUGCAGGUGGGCAUCUAAAGGAAGUGGGGCAAGGGGGGGAUAGGGAGGGGGGUAACACUUUGGGAACAGGUGGUCCCAGGUCGUUUC | 1.41 |
| UCCUCAAGUCCUGUGCUACACAUCGUAUGUACCGAAUCGGGUGGGUGGUGGAAAGUAUUAUGUUACGCCGUUCGGAUCUGCACUUCCAGC | 0.0903 |
| UGGCCCUGGUGGCAUGCGGGGAGGAAGAGGUGGCCUCAUGGAUGGUGGUGGUCCCGGUGGAAUGUUCAGAGGUGGCCGUGGUGGAGACAG | 0.526 |
| AGUCCUGUGCUACACAUCGUAUGUACCGAAUCGGUUUUUGGUUUUUUUGGUUUUUGGAAAGUAUUAUGUUACGCCGUUCGGAUCUGCACU | -1.33 |
| CUCAAGUCCUGUGCUACACAUCGUAUGUACCGAAUCGGAAGGGGAAGGAAGGGAAAGUAUUAUGUUACGCCGUUCGGAUCUGCACUUCCA | -0.179 |
| AGUCCUGUGCUACACAUCGUAUGUACCGAAUCGGUUUUUUUGGAAAAAGGUUUUUGGAAAGUAUUAUGUUACGCCGUUCGGAUCUGCACU | -1.68 |
| UCAAGUCCUGUGCUACACAUCGUAUGUACCGAAUCGGGAAAGGAAAGGAAAGGGGAAAGUAUUAUGUUACGCCGUUCGGAUCUGCACUUC | -0.647 |

Block 3 — target: CCNB3, cyclin fold, Cln2 fusion (human); technique: yeast growth competition, sequencing; medium: yeast; setting: strong parent motif; relative to: not given; direction: higher = stronger binding
Parent: PKN2 docking peptide (human); VSAVRKLDFSDTM
| Variant | normalised enrichment score |
| --- | --- |
| A3T | 0.558 |
| T12I | 1.71 |
| D11N | 1.9 |
| D8P | 0.271 |
| D11L | 2.04 |
| K6H | 0.415 |
| A3Q | -0.0296 |
| V4H | 0.141 |
| D11F | 1.27 |

Other studies, line by line
| Molecule | target | test | system | setting | scale | endpoint | result |
| --- | --- | --- | --- | --- | --- | --- | --- |
| PhoQ, residues 284 288 289 292 302 303 SMMNNA | PhoP, residues 12 14 15 18 19 GQALL (Escherichia coli, UniProt P23836) | Sort-seq, refers to: YFP reporter | E. coli | PhoQ-PhoP variant library, together with: 10 µM Mg2+ | relative to: high Mg2+ state, higher = stronger signaling | fold induction | 12.4 |
